Published values pooled from the literature.
Every numbered part comes from another study and shows a few of its results, in no order. Substitutions count along the parent as printed.

Set 1 — organism: Saccharomyces cerevisiae; observed: cell growth; technique: competitive growth deep sequencing; form: peptide; notes: peptide tiling library; added: cyclin E2-Cln2 fusion; reading: direction not given
Sequence | enrichment score
TTTTSPRTPPPLTVQD | 1.66
PPTFLSTGEIHAFLSS | -0.558
NNIRKALSFDNRGEEH | -0.257
PQWPCGKHKRVLIFAS | -0.77
PPKPLKKLRFDIEGSD | 0.494
GAEELEDLVHFSVSEL | 2.39
VSRNLRSSLKSSLHTL | -2.02
NFETPEAETPIRSPFK | 0.685

Set 2 — technique: protein-binding microarray; form: double-stranded DNA, one strand shown; matrix: in vitro; concentration: not given; reading: higher = stronger binding
Target: Transcription factor SOX-2, HMG box (SOX2, Homo sapiens, UniProt P48431, residues 19-118)
Chain of UniProt P48431 (19-118, looked up): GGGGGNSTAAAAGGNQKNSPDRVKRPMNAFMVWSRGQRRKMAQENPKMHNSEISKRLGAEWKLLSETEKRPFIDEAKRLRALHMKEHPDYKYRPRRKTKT
Notes: k-mer, scored over probes, only values ≥0.25
Sequence | E-score
TGAATCA | 0.312
ACAATCA | 0.381
AATTAAA | 0.358
AATTGGC | 0.333
GAATGGA | 0.299
ATGATTG | 0.337
AAATTGA | 0.354
AATGTGC | 0.265

Set 3 — technique: protein-binding microarray; form: double-stranded DNA, one strand shown; matrix: in vitro; concentration: 250 nM; notes: 60-bp whole probe; added: salmon DNA 0.4 mg/ml; baseline: random background probes; reading: higher = stronger binding; constant ends, left off below: GCCTAGCAC … GTCTTGATTCGCTTGACGCTGCTG
Target: Interferon regulatory factor 7, full length, phosphomimetic (IRF7, Homo sapiens, UniProt Q92985, residues 1-503, S101K/S471D/S472D/S475D/S476D/S477D/S483D/S484D/S487D)
Chain of UniProt Q92985 (whole entry, unmodified, looked up): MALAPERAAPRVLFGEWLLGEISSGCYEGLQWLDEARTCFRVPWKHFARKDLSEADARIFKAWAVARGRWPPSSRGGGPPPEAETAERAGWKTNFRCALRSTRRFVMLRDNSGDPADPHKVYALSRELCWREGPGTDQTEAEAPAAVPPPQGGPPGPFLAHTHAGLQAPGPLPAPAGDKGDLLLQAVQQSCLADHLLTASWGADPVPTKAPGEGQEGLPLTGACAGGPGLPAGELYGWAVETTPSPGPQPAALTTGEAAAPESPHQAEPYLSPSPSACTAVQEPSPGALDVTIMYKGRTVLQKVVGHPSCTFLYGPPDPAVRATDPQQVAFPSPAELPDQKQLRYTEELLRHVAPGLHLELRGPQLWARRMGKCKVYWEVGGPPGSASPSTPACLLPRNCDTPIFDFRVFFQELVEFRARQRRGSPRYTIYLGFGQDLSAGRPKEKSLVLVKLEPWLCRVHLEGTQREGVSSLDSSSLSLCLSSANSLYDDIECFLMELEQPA
Sequence | log fluorescence [z-score]
TCATCTCTAGAAATTCCCACTGTGCTA | 0.498
TTAGATATCAGTTTCGCTTAGTGCTAG | 6.52
CACGGACTGGGGTATCGGGACGTGCTA | -0.537
TTAGGTATCCGTATCGGTTAGTGCTAG | 0.617
TTGGGTATCGACACTGGGTTAGTGCTA | -0.469
GACGCTTTCGGGTATCGGGACGTGCTA | 1.44
TTAGGTATCGGTCTCGGTTTGTGCTAG | 5.31
TTAGGACTGAGGACTGGGTTAGTGCTA | -0.35

Further values, each from its own experiment
Starting sequence: PafA, mature enzyme, eGFP fusion (Elizabethkingia meningoseptica, UniProt Q9KJX5); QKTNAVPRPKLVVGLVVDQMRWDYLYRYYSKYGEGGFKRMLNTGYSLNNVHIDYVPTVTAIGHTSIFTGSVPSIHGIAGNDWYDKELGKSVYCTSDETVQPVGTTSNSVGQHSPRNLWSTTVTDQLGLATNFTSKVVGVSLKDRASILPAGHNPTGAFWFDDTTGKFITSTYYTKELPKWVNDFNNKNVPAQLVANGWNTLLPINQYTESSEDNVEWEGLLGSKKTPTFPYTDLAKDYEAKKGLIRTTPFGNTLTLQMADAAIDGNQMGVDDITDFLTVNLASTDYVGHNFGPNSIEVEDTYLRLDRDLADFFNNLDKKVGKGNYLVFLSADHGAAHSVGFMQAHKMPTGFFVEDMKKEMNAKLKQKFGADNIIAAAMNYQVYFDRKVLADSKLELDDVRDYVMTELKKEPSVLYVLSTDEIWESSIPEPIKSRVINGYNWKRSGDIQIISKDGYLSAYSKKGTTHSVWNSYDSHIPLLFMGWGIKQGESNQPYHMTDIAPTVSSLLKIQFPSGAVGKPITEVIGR
Variant | target | test | test system | conditions | how to read | endpoint | value
T284V | tungstate, free oxyanion | microfluidic competitive inhibition | in vitro, cell-free expressed | not given, derived from inhibition constants, unchanged parent 2230 nM | lower = stronger binding | oxyanion analog dissociation constant | 2480 nM

For quick reference, copied from above (set 2):
Sequence | E-score
AATTGGC | 0.333
GAATGGA | 0.299
ATGATTG | 0.337
